Published values from different studies.
“And” joins repeats or separate records; there may be more than shown. Numbers after ± are the reported error.
B1: Escherichia coli lac repressor; chain MKPVTLYDVAEYAGVSYQTVSRVVNQASHVSAKTREKVEAAMAELNYIPNRVAQQLAGKQSLLIGVATSSLALHAPSQIVAAIKSRADQLGASVVVSMVERSGVEACKAAVHNLLAQRVSGLIINYPLDDQDAIAVEAACTNVPALFLDVSDQTPINSIIFSHEDGTRLGVEHLVALGHQQIALLAGPLSSVSARLRLAGWHKYLTRNQIQPIAEREGDWSAMSGFQQTMQMLNEGIVPTAMLVANDQMALGAMRAITESGLRVGADISVVGYDDTEDSSCYIPPLTTIKQDFRLLGQTSVDRLLQLSQGQAVKGNQLLPVSLVKRKTTLAPNTQTASPRALADSLMQLARQVSRLESGQ

Substance = GTSRNKRGV; tested on = Mamu-B*08301 MHC class I; assay = peptide binding; system = peptide, Chinese rhesus macaque; endpoint = IC50; value = > 20 µM
Substance = Polymyxin B; system = mouse; conditions = intraperitoneal, 30 mg/kg single dose, day 7; endpoint = survival; value = 0%
Substance = CEMDGQCKRDLKCCMGMCGKSCVSPVKA; tested on = p38 MAPK (mouse); assay = Western blot; system = peptide, RAW264.7; conditions = concentration not given, 6 h pretreatment, together with: LPS for 30 min; endpoint = p-p38/p38 ratio; value = 0.37 ± 0.05
Substance = KKVVYFEFYE; tested on = UltraID biotin ligase, C-terminal fusion; assay = biotinylation activity, inhibitor, streptavidin/HA fluorescence ratio; system = peptide, HEK-293T; conditions = concentration not given, 30 min, together with: biotin 50 µM; how to read = baseline: control; endpoint = inhibition; value = > 75%
Substance = nonaarginine; tested on = PorA peptide pore; assay = peptide binding, planar bilayer single-channel recording; conditions = 0.5 µM, pH 7.4, +25 mV, trans side, 150 mM KCl; endpoint = koff; value = 606 ± 60 s⁻¹
Substance = orexin-B; tested on = non-responsive control sensor; assay = sensor fluorescence, fluorescence imaging; system = HEK293T; conditions = 10 µM, together with: OXB 10 µM; how to read = baseline: baseline; endpoint = maximal ΔF/F0; value = 3.95% and 13.2% and 7.2% and -9.18% and 6.7% and 6.15%
Substance = glucagon; assay = isotope dilution; system = human, type 1 diabetes; conditions = intravenous infusion, 0.12 ng/kg/min, 160 to 180 min; endpoint = leg extraction; value = 27.9 ± 3.8%
Substance = insulin human; assay = refers to: MAPK10 mRNA; system = uninfected mouse, brain; conditions = i.p., dose not given; how to read = baseline: PBS; endpoint = fold change; value = 1.01
Substance = EMIDENRRRVLVKVVLFP; tested on = UltraID biotin ligase, C-terminal fusion; assay = biotinylation activity, inhibitor, streptavidin/HA fluorescence ratio; system = peptide, HEK-293T; conditions = concentration not given, 30 min, together with: biotin 50 µM; how to read = baseline: control; endpoint = inhibition; value = > 75%
Substance = B1 (Escherichia coli lac repressor); tested on = lac repressor Escherichia coli; conditions = concentration not given, O1 operator DNA, together with: [14C]IPTG; endpoint = remaining binding; value = 100%
Substance = heparin sodium; system = healthy Chinese adult volunteers; conditions = continuous intravenous infusion, 8 IU/kg/h, 5 days; endpoint = elevated blood uric acid; value = 0%
Substance = RGPGRAFVT; tested on = mouse H2-Dd/human β2m; assay = thermal stability rescue, DSF; system = peptide; conditions = 20-fold molar excess, pH 7.2, peptide-deficient, UV-irradiated; endpoint = Tm; value = 34.8 ± 0.3 °C
Substance = colistin; tested on = Aspergillus fumigatus; assay = Alamar blue; conditions = 20 µM; endpoint = metabolic activity; value = 100%
Substance = hexaarginine; tested on = PorA peptide pore; assay = peptide binding, planar bilayer single-channel recording; conditions = 0.5 µM, pH 7.4, -5 mV, cis side, 150 mM KCl; endpoint = koff; value = 1000 ± 108 s⁻¹
Substance = HSNVKELVF; tested on = Mamu-B*08301 MHC class I; assay = peptide binding; system = peptide, Chinese rhesus macaque; endpoint = IC50; value = > 20 µM
Substance = DPDPE; assay = RP-HPLC; system = HALO C18 column; conditions = 25 µM, acetic acid/acetonitrile, 25 min gradient; endpoint = retention time; value = 8.87 min
Substance = RGPGRAFV; tested on = mouse H2-Dd S73C/human β2m; assay = thermal stability rescue, DSF; system = peptide; conditions = 20-fold molar excess, pH 7.2, peptide-deficient, together with: TCEP 1 mM; endpoint = Tm; value = 34.7 ± 0.3 °C
Substance = abamectin; tested on = CAR; assay = reporter gene, luciferase; conditions = concentration not given; endpoint = activity; value = inactive
Substance = LAYTYEAYV; tested on = Mamu-A1*02601 MHC class I; assay = peptide binding; system = peptide, Chinese rhesus macaque; endpoint = IC50; value = > 20 µM
Substance = HVLVMSATRR; system = peptide, C57BL/6J mice, male, serum; conditions = subcutaneous osmotic pump, 3 mg/kg/day peptide basis, 8 weeks; endpoint = creatinine; value = 0.2 mg/dL
Substance = AVHVASGFI; tested on = Mamu-A1*02601 MHC class I; assay = peptide binding; system = peptide, Chinese rhesus macaque; endpoint = IC50; value = > 20 µM
Substance = EFTEDELPSDSCVFGGQKLTL; tested on = IKK, human; system = peptide; conditions = 500 µM, 0 min, 30 °C, together with: IκBα 1 µM; how to read = baseline: no peptide; endpoint = IκBα phosphorylation; value = 0%
Substance = KKSEIYVAW; tested on = Mamu-A1*02601 MHC class I; assay = peptide binding; system = peptide, Chinese rhesus macaque; endpoint = IC50; value = > 20 µM
Substance = aspterric acid; assay = root length; system = Arabidopsis thaliana Col-0 seeds; conditions = 100 µg/mL; endpoint = inhibition; value = 99.2%
